{"data": "Assay results collected from several papers", "note": "Each numbered part is a random draw from the data of one study; scales do not carry over between parts. Positions count from the first letter of the parent shown.", "chain of UniProt P61077 (whole entry, looked up)": "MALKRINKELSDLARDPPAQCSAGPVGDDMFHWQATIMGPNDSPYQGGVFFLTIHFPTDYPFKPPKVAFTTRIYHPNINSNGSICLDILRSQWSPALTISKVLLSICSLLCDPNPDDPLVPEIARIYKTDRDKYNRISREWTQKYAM"}
{"data": "Study 1", "target": "Ras GTPase-activating protein-binding protein 1, RRM domain (G3BP1, Homo sapiens, UniProt Q13283)", "method": "RNA Bind-n-Seq", "form": "RNA", "medium": "in vitro", "concentration": "1 µM", "setting": "whole 134-nt RNA, ends assumed", "added": "150 mM KCl", "baseline": "input library", "reading": "higher = stronger binding", "constant ends, left off below": "GGGAGUUCUACAGUCCGACGAUC … UGGAAUUCUCGGGUGUCAAGG", "chain of UniProt Q13283 (whole entry, looked up)": "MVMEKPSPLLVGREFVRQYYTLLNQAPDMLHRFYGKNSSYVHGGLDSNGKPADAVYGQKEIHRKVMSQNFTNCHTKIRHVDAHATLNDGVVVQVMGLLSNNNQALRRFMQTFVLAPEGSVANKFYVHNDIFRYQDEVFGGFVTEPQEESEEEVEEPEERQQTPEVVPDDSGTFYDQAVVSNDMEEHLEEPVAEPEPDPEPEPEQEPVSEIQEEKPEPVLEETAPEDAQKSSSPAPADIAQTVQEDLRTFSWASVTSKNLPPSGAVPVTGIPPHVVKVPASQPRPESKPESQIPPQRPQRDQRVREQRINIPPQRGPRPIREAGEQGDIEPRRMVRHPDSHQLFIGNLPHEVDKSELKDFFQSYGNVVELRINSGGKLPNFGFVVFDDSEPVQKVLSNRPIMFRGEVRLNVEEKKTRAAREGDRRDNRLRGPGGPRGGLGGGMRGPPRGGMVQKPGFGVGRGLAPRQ"}
{"Sequence": "GCAGGAAGUAAGAACAAAUGGAAAUGCUUCGGAUAGUGGCAGGGGUGGGGGUUGCUAAGGAAAGGGUGGGAUGGGAGUGGGUAAAGAGUU", "log2 enrichment": 0.835}
{"Sequence": "AAGUCCUGUGCUACACAUCGUAUGUACCGAAUCGGGUUUGGGAGGGAAAAAAAGGGAAAGUAUUAUGUUACGCCGUUCGGAUCUGCACUU", "log2 enrichment": 0.117}
{"Sequence": "UCCAGUCUAGCUUUGGAGAAGCGCCAACCUGCUCACUGCCGCCGACCAGACUGCAUGUUUGGUUGUACUUGUUUGAAAAGAAAAGUUGUA", "log2 enrichment": -0.0802}
{"Sequence": "UCCUGUGCUACACAUCGUAUGUACCGAAUCGGCCCCCCCGGCCCCCCCGGCCCCCCCGGGAAAGUAUUAUGUUACGCCGUUCGGAUCUGC", "log2 enrichment": -1.01}
{"Sequence": "UAACUUUAGAGGAGGAUCUGAUGGAUAUGGCAGUGGACGUGGAUUGGGGGAUGGCUAUAAUGGGUAUGGAGGAGGACCUGGAGGUGGCAA", "log2 enrichment": -0.478}
{"Sequence": "AAGUCCUGUGCUACACAUCGUAUGUACCGAAUCGGGGUUUGGGGUUUGGGGUUUGGGAAAGUAUUAUGUUACGCCGUUCGGAUCUGCACU", "log2 enrichment": 0.481}
{"Sequence": "CCUGUGCUACACAUCGUAUGUACCGAAUCGGGUUUUUUUGGGUUUUUUUGGGUUUUUUUGGAAAGUAUUAUGUUACGCCGUUCGGAUCUG", "log2 enrichment": -0.075}
{"Sequence": "AGUCCUGUGCUACACAUCGUAUGUACCGAAUCGGUUUUUGGGUUUUUGGGUUUUUGGAAAGUAUUAUGUUACGCCGUUCGGAUCUGCACU", "log2 enrichment": -0.0975}
{"data": "Study 2", "target": "Hepatocyte nuclear factor 3-alpha (Foxa1, Mus musculus, UniProt P35582, residues 1-468, full length assumed)", "method": "EMSA with sequencing", "form": "double-stranded DNA, one strand shown", "medium": "in vitro", "concentration": "10 and 20 nM", "setting": "whole designed probe, mean of two concentrations, ends assumed", "baseline": "negative control set to 0", "reading": "higher = stronger binding", "constant ends, left off below": "GTGAGCGGTGCCCATTGATGGGGAAC … TTTCACTGGGATCGTGGGGAC", "chain of UniProt P35582 (whole entry, looked up)": "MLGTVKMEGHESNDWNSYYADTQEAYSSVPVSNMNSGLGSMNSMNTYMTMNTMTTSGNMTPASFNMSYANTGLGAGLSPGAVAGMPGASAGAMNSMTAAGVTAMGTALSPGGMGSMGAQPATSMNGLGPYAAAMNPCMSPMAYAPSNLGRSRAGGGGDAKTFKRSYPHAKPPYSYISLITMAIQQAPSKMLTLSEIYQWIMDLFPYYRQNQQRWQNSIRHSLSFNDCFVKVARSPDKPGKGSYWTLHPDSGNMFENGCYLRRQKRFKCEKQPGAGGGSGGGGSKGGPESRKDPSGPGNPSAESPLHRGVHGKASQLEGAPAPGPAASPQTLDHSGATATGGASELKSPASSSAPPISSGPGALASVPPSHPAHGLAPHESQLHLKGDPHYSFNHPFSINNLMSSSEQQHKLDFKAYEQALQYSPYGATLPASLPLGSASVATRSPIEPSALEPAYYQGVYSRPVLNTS"}
{"Sequence": "ATCTTCCCCCTCTTCCTTGCCCCACCAGCTCACCTTCCCGGGTTATTTGCAGATAGGAAAATAAATAAAGCCGGCATTCGTTAACGCAGTTCTGGCGCAAACTGCTGTTTGCTCTGGATCTAACATGGTCCTTTGGCGACGCCAGGCTCCGGGAGAGCAAAGCACCGTGTCAGGGCCATGATCCGGGGTGGCC", "normalised bound fraction": "0.347 ratio"}
{"Sequence": "TAGGCCAGCGGTTTCTTGTATAAAGGAAACAAAAGTCATATAATTCCTTTTACTAAGGTCACTGACCTTTGCAGCTTCTTCCACGATGAGAGAGTAATCTGAAGATGACTAAGTGTTTTTGACATCCAAAGTCACCCACAGCCAGAACCAGAGTCTGGGAGAAGTGTATTTTGGACATCGTGACCTCAACTAT", "normalised bound fraction": "-0.0622 ratio"}
{"Sequence": "TTTGCAGAGCTTTTCCAGTGAGAGTATCCTAGATACTTGGGGTCATGGCATTACCTTTACATTAGGGCGACAGCAGCTGCAATCTAAACAAAGTAAACAAGTCTGCTAGTGCTTGCCTCTTAAACTAGCCAGGTAGTAGGGTATTTGAGAGTTTAGATAGCCATGCATGTTATATAGGCAGGAAGCAGACAAA", "normalised bound fraction": "0.463 ratio"}
{"Sequence": "ATCTTCCCCCTCTTCCTTGCCCCACCAGCTCACCTACGGGGGTTATTTGCACAAAGGAAAATAAATAAAGCCGGCATTCGTTAACGCAGTTCACGCGCATACTGCTGTTTGCTCTGGATCTAACATGGTCCTTTGGCGAGGCGTGGCTCCGGGAGAGCAAAGCACCGTGTCAGGGCCATGATCCGGGCTCGCC", "normalised bound fraction": "0.385 ratio"}
{"Sequence": "ATAGCATCCTCCCATCAGCTTTGATACTTACTCTCTCAGGATCATGATTTGCTATTCTTTATAAGGATCATTTTTCTCATTATCAGTCAACATGTTTACATTGGAATAGATACACTCTTCTATTTCAGTTATAGTTAGTTGAGACATAATCTCACTTTAGAAACCTTAACTACATATGTTATAAAACCTGTAT", "normalised bound fraction": "0.34 ratio"}
{"data": "Study 3", "target": "ABI1, truncated, D143A, DHFR fusion (Arabidopsis thaliana)", "method": "DHFR PCA, deep sequencing", "medium": "yeast", "setting": "methotrexate growth selection, single substitutions", "added": "(+)-ABA 0.0091 µM", "baseline": "wild-type fitted maximum", "reading": "higher = stronger binding", "parent": "PYL1, truncated, DHFR fusion (Arabidopsis thaliana); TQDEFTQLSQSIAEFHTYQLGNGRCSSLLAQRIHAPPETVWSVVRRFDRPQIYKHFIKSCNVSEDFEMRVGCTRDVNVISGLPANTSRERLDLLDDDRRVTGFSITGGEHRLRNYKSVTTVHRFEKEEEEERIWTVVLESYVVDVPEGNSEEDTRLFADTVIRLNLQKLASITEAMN; partner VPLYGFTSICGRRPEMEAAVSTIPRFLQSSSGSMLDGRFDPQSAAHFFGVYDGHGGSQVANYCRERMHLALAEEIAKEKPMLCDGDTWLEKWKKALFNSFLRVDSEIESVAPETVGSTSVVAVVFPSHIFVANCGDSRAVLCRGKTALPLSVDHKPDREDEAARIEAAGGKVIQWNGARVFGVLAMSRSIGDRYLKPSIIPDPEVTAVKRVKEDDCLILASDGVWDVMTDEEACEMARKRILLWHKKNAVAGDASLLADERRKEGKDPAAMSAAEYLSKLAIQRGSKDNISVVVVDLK"}
{"Change": "N77S", "relative binding score": "49.7%"}
{"Change": "E67A", "relative binding score": "8.09%"}
{"Change": "H16A", "relative binding score": "0.246%"}
{"Change": "F157K", "relative binding score": "1.7%"}
{"Change": "P50D", "relative binding score": "11.2%"}
{"Change": "I12K", "relative binding score": "-7.45%"}
{"Change": "L94Y", "relative binding score": "4.72%"}
{"Change": "N77W", "relative binding score": "20.7%"}
{"data": "Study 4", "target": "CCNB1, cyclin fold, Cln2 fusion (human)", "method": "yeast growth competition, sequencing", "medium": "yeast", "setting": "strong parent motif", "baseline": "not given", "reading": "higher = stronger binding", "parent": "viral docking peptide; KGVKRKLFAEDSS"}
{"Change": "K4T", "normalised enrichment score": 1.85}
{"Change": "L7P", "normalised enrichment score": 0.14}
{"Change": "K4D", "normalised enrichment score": 0.443}
{"Change": "G2Y", "normalised enrichment score": 1.01}
{"Change": "S12P", "normalised enrichment score": 2.8}
{"Change": "K6C", "normalised enrichment score": 2.45}
{"Change": "A9I", "normalised enrichment score": 2.05}
{"Change": "G2L", "normalised enrichment score": 1.23}
{"Change": "K6Q", "normalised enrichment score": 2.84}
{"Change": "D11Q", "normalised enrichment score": 1.05}
{"Change": "V3N", "normalised enrichment score": 0.364}
{"Change": "E10T", "normalised enrichment score": 0.796}
{"Change": "E10Y", "normalised enrichment score": 0.4}
{"Change": "K6L", "normalised enrichment score": 0.334}
{"Change": "E10L", "normalised enrichment score": 0.846}
{"Change": "E10G", "normalised enrichment score": 0.823}
{"data": "Mixed results", "B1": "MID1 RING domain (UniProt O15344); chain METLESELTCPICLELFEDPLLLPCAHSLCFNCAHRILVSHCATNESVESITAFQCPTCRHVITLSQRGL"}
{"Molecule": "B1 (MID1 RING domain)", "target": "UBE2D3 UBC core domain (UniProt P61077)", "assay": "yeast two-hybrid", "system": "yeast", "conditions": "mostly zero background", "scale": "baseline: not given, higher = stronger interaction", "quantity": "lacZ reporter activity", "value": 0}
{"note": "Excerpt of the above (study 2):"}
{"Sequence": "ATAGCATCCTCCCATCAGCTTTGATACTTACTCTCTCAGGATCATGATTTGCTATTCTTTATAAGGATCATTTTTCTCATTATCAGTCAACATGTTTACATTGGAATAGATACACTCTTCTATTTCAGTTATAGTTAGTTGAGACATAATCTCACTTTAGAAACCTTAACTACATATGTTATAAAACCTGTAT", "normalised bound fraction": "0.34 ratio"}
{"Sequence": "ATCTTCCCCCTCTTCCTTGCCCCACCAGCTCACCTTCCCGGGTTATTTGCAGATAGGAAAATAAATAAAGCCGGCATTCGTTAACGCAGTTCTGGCGCAAACTGCTGTTTGCTCTGGATCTAACATGGTCCTTTGGCGACGCCAGGCTCCGGGAGAGCAAAGCACCGTGTCAGGGCCATGATCCGGGGTGGCC", "normalised bound fraction": "0.347 ratio"}
{"Sequence": "ATCTTCCCCCTCTTCCTTGCCCCACCAGCTCACCTACGGGGGTTATTTGCACAAAGGAAAATAAATAAAGCCGGCATTCGTTAACGCAGTTCACGCGCATACTGCTGTTTGCTCTGGATCTAACATGGTCCTTTGGCGAGGCGTGGCTCCGGGAGAGCAAAGCACCGTGTCAGGGCCATGATCCGGGCTCGCC", "normalised bound fraction": "0.385 ratio"}
{"Sequence": "TAGGCCAGCGGTTTCTTGTATAAAGGAAACAAAAGTCATATAATTCCTTTTACTAAGGTCACTGACCTTTGCAGCTTCTTCCACGATGAGAGAGTAATCTGAAGATGACTAAGTGTTTTTGACATCCAAAGTCACCCACAGCCAGAACCAGAGTCTGGGAGAAGTGTATTTTGGACATCGTGACCTCAACTAT", "normalised bound fraction": "-0.0622 ratio"}
